Published values collected from several papers.
Every numbered part comes from another study and shows a few of its results, in no order.

Block 1 — method: protein-binding microarray; molecule type: double-stranded DNA, one strand shown; sample: in vitro; tested at: 2540 nM top; notes: 60-bp whole probe; added: salmon DNA 0.4 mg/ml; reference: random background probes; direction: higher = stronger binding; constant ends, left off below: GCCTAGCAC … GTCTTGATTCGCTTGACGCTGCTG
Target: Interferon regulatory factor 3, full length, phosphomimetic (IRF3, Homo sapiens, UniProt Q14653, residues 1-427, S386D/S396D/S398D/S402D/T404D/S405D)
Residues (chain): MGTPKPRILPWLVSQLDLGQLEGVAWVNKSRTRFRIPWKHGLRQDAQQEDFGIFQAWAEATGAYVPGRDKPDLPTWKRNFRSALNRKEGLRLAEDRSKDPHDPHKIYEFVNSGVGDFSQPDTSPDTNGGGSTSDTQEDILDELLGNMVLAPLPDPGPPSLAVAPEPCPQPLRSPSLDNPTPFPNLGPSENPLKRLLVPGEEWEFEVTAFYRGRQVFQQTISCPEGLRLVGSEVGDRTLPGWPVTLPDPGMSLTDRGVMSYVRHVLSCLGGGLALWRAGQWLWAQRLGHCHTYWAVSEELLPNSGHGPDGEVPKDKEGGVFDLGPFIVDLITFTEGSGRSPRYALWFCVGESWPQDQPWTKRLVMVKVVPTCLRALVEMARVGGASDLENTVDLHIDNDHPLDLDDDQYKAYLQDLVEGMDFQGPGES
| Sequence | fitted relative affinity |
| --- | --- |
| AAGCTCCTATCTTATGATATAGTGCTA | 1.16 z-score |
| TTTGATTTCAGTCTCGATTAGTGCTAG | 2.52 z-score |
| CACGGACTGGGACTGGGGACGTGCTAG | -0.87 z-score |
| CTGATTTTGCTTTCATTTATGTGCTAG | 2.22 z-score |
| TCAAGTTTTCATTTTCTACTGTGCTAG | 3.8 z-score |
| TTAGGTATCGGGTTTCAGTTAGTGCTA | 2.66 z-score |
| TTCTGATTGAATCTCCCATTGTGCTAG | 0.688 z-score |
| TTAGATTTCAGACTGGATTGGTGCTAG | 0.665 z-score |
| TTAGGTCTCGGTCTCCGTTAGTGCTAG | 1.15 z-score |

Block 2 — method: RNA Bind-n-Seq; molecule type: RNA; sample: in vitro; tested at: 365 nM; reference: no-protein control; direction: higher = stronger binding
Target: RNA binding protein fox-1 homolog 2, RRM domain, GST-SBP tag (RBFOX2, Homo sapiens, UniProt O43251-10, residues 100-194)
Notes: natural RNA segment, single round, ends assumed
Target sequence (chain): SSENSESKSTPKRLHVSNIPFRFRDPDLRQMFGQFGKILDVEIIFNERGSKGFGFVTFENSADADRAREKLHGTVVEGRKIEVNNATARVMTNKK
| Sequence | RBNS enrichment (R) |
| --- | --- |
| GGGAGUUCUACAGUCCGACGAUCUGGCAGGAUUCUUUCUUGAAUUAAUAUUAAUCCUUAAAUUGAUUUUUCUGGGAUUAUACAAAUUCCUUUUUAUAUAAAAGUAUAUUGUUUAAAACAGUAGCUAUAGCCAUUGGAAUUCUCGGGUGCCAA | 0.843 |
| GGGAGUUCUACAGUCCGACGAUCUUGCAAAUGCUUUGUGCUUUGACUGUCACCACGAAAAGGAAGAAAUUCAUGUCAGUGAAGAAAUGCAGAAUUUAAACAAAAUCAGCUUGAGUUUGUUUUACCAGAUGCUCUGGAAUUCUCGGGUGCCAA | 0.449 |
| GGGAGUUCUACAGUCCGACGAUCUAAAAAAAUGGAAUUUAAAGGAAGGCUUGUGUCACCUUUUGACUAUAAAUAAAUCCUUUCUACUGGACUUUGCAGUAGUCCUUUCUGGGUGAGCUCUGGGCCGGGCAUGGUGGAAUUCUCGGGUGCCAA | 0.907 |
| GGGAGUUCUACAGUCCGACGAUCAUGGACAUUUUUGUAACUCAGCUCAUAUUCUGACUGUAUUUGAGAAGCUGGCUGUUUAAGGGAACCCAGAAGUGAAUUCUUUUGUAAAGUAAAGCACCCUUUUGUAAUGCUGGAAUUCUCGGGUGCCAA | 1.2 |
| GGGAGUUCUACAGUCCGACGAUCCUAGUCUCAAAGAUCAAGUUGGUCUGAGGAGCCGGAUGUGACUGUGGGUGUUGGCUGGGGCAUUAAAACUCAUCAUCGCCACCCAUCUCUGUCUCUCGUCACCCUGAUCUUGGAAUUCUCGGGUGCCAA | 0.236 |
| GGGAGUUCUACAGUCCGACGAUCCAUCCCUUCCUCCUCUCCUGGAAACAGACAGGGAGAAGUUGAGCAGGUAUCAACUAGGGGAGGAGAGAGGGUCUCCAGUGUUCCCCCCAUAGAGACCAGGAGGGAGAGCCUGGAAUUCUCGGGUGCCAA | 0.836 |
| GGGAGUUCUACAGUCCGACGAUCCUUAGGAACAAGGAGUUGACAAGAGACUCCCCAGAGAGUCCUUGCGUCCACAAGGCCUCCUGAUACCAGCUUGGCUUCCCACAGCAAGCUCUAACUCUGAGAGCCUUUUGUGGAAUUCUCGGGUGCCAA | 0.416 |
| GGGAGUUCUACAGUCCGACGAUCCGAAACGCUGGAUCCCCAAGGGUACAGUGUGGCCCAGUCCUCCCCCACCUCCAUGGUGGCCCAGGCUGCAGGGCUCACGGUGGGCCCACGGUGGAGGCCUCAGGCAGCUUUGGAAUUCUCGGGUGCCAA | 0.215 |
| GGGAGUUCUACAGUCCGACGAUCGUAUAUGGACAGGCCUGCAUCACAGCAUCCUAGACUUCUUUGGAGACCCGUUUGAUAGUACUUUCAGUUUUUGGCAUUUGGGGUACUUUGAAAUCCAACUUGUUUUUAAAUGGAAUUCUCGGGUGCCAA | 0.948 |
| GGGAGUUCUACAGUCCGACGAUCUUUGUGAGUGCUUGGAGUGUUCUUCCUAAUAAACACACUUCAUGUCUUGUGUUGUCUUUUUCACUCAGUCCUGACUUACACAUAGGGGUCCUGGAAGAACGGGAGUAUGAUGGAAUUCUCGGGUGCCAA | 0.533 |
| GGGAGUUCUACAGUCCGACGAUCUCUGCCAAAAGCAUUGUUUUCCAGGGCCCUUGACCAACAUCGGCUUCCCCAGUCCAGGGCUCCCCUGCUCCUUUCCCUUCCCUGUACUGGGGUAGCUCCUGCCUGCUCUCUGGAAUUCUCGGGUGCCAA | 1.14 |
| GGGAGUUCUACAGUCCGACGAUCCCCGUGCGUGGCCAUACCCUGCCUCCCUCUCUGGCCCUGGGAGGGCAGCUUGGAGCCCAGGUAGGGGGCAGAGCUGUCCUCAGCUGCACUGCGGCCUGGUGGCAGUGUGGUGGAAUUCUCGGGUGCCAA | 0.92 |

Block 3 — method: RNA Bind-n-Seq; molecule type: RNA; sample: in vitro; tested at: 100 nM; reference: input RNA pool; direction: higher = stronger binding
Target: RING finger protein unkempt homolog, zinc fingers 1-6, SBP tag (UNK, Homo sapiens, UniProt Q9C0B0, residues 30-357)
UniProt Q9C0B0, sequence (30-357, looked up): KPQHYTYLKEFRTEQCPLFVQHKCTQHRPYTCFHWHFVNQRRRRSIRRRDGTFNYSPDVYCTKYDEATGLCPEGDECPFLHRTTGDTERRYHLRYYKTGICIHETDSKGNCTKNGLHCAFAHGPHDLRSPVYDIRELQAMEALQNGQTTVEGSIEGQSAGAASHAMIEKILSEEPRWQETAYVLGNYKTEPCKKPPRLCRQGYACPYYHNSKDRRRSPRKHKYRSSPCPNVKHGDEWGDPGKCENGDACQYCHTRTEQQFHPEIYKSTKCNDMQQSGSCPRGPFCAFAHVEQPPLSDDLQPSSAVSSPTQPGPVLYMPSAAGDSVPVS
Notes: RNA with constant flanks, vertebrate orthologous sites, ends assumed
| Sequence | bound/input enrichment [ratio] |
| --- | --- |
| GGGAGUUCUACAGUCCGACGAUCUAUCUUUAGGAUGAAGCUCUUACAUCAGGUAUCACGAGUCUGGAGAACAGAUGGGUUGACUAGUUGUAUUUACAAAUUACUCUCUGUGGAUUAUAAUCCUUUGUAUACCAACAUCACAGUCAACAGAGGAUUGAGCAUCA | 0.321 |
| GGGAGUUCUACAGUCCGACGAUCCUACACCAGAUAUUUUAACUGUUUUAAAGUUACAAACAAGCUUUGCUUUCUGCAUUUAAAUAGAAUACUUUUGUAUUGUGCUUCAGAUGUGUGGCGAUGUUAGUUUGCUCUUAUAAUAUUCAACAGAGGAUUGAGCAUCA | 0.459 |
| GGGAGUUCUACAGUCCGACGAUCGGGACGCUUUGAUGUAAAAAUUGAAGUUAAGAGCUGAUCAUAAGCACAAAUCCUCCCCUCUAGCCAUUUAAUAAGUUAAAAAAUUACAAAAACAAAACCUACUAGUCUUGAACAAACUGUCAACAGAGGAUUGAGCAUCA | 9.03 |
| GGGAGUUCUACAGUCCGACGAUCUUUUAUUGAUCAGGUCUGUAAAUGUGUACUAAAAAAAUCAGAGUUUAUUUAUAAACAGAAUAGUUUAUUUAAAGAGAAGUUCUUUUCCUUAUUGAUAUCAUGGUAUGCAUUAAUUCCAUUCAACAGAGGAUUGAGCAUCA | 0.176 |
| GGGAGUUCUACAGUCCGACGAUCGGAACAGCAAAUCACUGUGAUAUUUAAAAUAUGCACAGUCCUGAUCUUUCUCCAUGAUCCUAGUAUUUUUCUAGCUGUAUCUUUGUAUCUCAUACUGUUAUUUAUCAGUUUUGUUCCCCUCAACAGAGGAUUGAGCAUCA | 0.674 |
| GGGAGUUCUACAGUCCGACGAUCUAAUUGUAAUGCAGAAAUCAUUCUAGUUCUAAAUUAGCUACAGUGAUAACUAGUCUGCACUAAGAAUUGUUUACCUUUUAAAUUAUCUGCUUUGUCUGAUACAUAAAACAUAUCAAAAUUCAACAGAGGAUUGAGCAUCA | 0.461 |
| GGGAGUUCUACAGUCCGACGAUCCCCCAGUUUGUAUGUACAUUAUUCAUAUUCCUCUCUGUUUUGUUGGGAAAAAAAGACAUCUUAACCUUCUUUAAGGUUGUUGAUUUAAUUUCAUGUUAUUAGGUUGCAUGAUGUUGCCCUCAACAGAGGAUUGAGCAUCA | 0.27 |

Mixed results
| Molecule | target | test | system | setting | scale | measurement | result |
| --- | --- | --- | --- | --- | --- | --- | --- |
| PhoQ, residues 284 288 289 292 302 303 GTAMQF | PhoP, residues 12 14 15 18 19 TPLRH (Escherichia coli, UniProt P23836) | Sort-seq, item: YFP reporter | E. coli | PhoQ-PhoP variant library, added: 10 µM Mg2+ | reference: high Mg2+ state, higher = stronger signaling | fold induction | 0.793 |

For quick reference, copied from above (block 2):
| Sequence | RBNS enrichment (R) |
| --- | --- |
| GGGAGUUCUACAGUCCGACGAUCCUAGUCUCAAAGAUCAAGUUGGUCUGAGGAGCCGGAUGUGACUGUGGGUGUUGGCUGGGGCAUUAAAACUCAUCAUCGCCACCCAUCUCUGUCUCUCGUCACCCUGAUCUUGGAAUUCUCGGGUGCCAA | 0.236 |
| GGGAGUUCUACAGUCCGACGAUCUCUGCCAAAAGCAUUGUUUUCCAGGGCCCUUGACCAACAUCGGCUUCCCCAGUCCAGGGCUCCCCUGCUCCUUUCCCUUCCCUGUACUGGGGUAGCUCCUGCCUGCUCUCUGGAAUUCUCGGGUGCCAA | 1.14 |
